Experimental data of several laboratories.
Each numbered part is a random draw from the data of one study; scales do not carry over between parts.
UniProt Q9UQM7, sequence (whole entry, looked up): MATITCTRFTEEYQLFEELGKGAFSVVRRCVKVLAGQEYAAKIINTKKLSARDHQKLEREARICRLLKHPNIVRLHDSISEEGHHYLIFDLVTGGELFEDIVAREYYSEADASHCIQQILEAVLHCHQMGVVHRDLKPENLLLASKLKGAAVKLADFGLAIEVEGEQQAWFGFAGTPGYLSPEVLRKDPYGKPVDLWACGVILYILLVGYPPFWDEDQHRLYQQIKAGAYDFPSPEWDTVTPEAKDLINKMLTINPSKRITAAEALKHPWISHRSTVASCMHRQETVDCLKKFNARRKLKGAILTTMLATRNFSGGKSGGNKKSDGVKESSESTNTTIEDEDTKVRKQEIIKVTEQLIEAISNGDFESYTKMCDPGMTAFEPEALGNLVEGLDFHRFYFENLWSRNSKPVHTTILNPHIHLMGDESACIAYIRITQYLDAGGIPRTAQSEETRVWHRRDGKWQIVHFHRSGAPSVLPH
UniProt Q9Y4K4, sequence (whole entry, looked up): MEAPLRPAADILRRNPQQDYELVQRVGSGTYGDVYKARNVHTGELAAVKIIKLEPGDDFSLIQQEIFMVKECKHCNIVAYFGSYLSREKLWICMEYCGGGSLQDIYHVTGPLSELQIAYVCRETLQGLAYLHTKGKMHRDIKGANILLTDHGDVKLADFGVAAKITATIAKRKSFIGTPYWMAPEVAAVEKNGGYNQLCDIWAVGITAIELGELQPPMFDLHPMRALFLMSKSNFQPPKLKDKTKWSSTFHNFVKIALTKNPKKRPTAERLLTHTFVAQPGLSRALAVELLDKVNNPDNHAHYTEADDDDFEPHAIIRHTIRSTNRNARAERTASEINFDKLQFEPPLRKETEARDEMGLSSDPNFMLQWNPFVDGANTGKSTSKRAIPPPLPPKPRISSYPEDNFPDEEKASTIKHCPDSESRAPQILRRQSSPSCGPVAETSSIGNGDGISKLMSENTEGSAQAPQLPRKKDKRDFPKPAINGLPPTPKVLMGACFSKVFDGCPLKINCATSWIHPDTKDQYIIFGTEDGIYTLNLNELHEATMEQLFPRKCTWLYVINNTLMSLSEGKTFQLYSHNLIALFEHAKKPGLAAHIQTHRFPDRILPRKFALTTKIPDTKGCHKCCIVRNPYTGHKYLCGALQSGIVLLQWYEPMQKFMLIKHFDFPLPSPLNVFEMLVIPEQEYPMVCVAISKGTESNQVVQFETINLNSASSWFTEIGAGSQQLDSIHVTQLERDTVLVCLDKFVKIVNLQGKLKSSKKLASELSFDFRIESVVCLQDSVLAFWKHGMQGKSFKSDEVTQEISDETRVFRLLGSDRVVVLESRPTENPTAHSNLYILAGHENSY
UniProt Q32MK0, sequence (whole entry, looked up): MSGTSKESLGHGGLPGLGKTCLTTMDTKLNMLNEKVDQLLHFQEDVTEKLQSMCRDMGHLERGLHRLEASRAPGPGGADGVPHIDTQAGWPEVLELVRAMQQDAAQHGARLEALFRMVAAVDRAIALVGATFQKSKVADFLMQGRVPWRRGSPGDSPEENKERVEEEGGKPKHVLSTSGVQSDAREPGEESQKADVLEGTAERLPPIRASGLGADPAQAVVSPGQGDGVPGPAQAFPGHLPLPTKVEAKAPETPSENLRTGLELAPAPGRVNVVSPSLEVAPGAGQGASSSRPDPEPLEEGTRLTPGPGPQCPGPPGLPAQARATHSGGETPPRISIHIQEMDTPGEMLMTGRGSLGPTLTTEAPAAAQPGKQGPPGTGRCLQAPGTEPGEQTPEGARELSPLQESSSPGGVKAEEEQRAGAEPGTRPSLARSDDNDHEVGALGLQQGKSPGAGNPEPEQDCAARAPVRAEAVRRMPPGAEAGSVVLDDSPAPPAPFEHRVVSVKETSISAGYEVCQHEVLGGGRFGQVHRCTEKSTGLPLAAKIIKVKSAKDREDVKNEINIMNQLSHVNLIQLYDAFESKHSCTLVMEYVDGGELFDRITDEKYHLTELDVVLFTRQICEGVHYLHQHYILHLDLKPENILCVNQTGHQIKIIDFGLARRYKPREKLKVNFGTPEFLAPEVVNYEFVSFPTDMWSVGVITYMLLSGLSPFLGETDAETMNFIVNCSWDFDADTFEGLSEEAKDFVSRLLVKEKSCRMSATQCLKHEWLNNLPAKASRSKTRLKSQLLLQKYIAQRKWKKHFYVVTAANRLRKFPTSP
UniProt P50613, sequence (whole entry, looked up): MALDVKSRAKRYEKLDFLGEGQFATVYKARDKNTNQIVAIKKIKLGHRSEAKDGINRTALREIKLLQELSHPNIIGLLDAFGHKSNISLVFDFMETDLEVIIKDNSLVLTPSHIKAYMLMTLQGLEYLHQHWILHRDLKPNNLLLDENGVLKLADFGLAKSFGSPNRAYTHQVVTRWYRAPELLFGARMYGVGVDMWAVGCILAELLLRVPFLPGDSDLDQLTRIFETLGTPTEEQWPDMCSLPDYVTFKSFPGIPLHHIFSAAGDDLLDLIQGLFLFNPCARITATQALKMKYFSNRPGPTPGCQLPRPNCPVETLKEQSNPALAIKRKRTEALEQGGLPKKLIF

Set 1
SMILES: Cn1cncc1[C@@](O)(COc1ccc(C#N)cc1-c1ccc(OC(F)(F)F)cc1)c1ccc(C#N)cc1
Method: competition with immobilised ligand
Concentration: 1 µM
It gave 96% for remaining binding (Myosin light chain kinase (MYLK3, Homo sapiens, UniProt Q32MK0); cell-free assay).
For Calcium/calmodulin-dependent protein kinase type II subunit alpha (CAMK2A, Homo sapiens, UniProt Q9UQM7); cell-free assay: remaining binding read 84%.
Hepatocyte growth factor receptor (MET, Homo sapiens, UniProt P08581); cell-free assay — remaining binding: 94%.
For Cyclin-dependent kinase 7 (CDK7, Homo sapiens, UniProt P50613); cell-free assay: remaining binding read 63%.
It gave 87% for remaining binding (Phosphatidylinositol 4-phosphate 5-kinase type-1 alpha (PIP5K1A, Homo sapiens, UniProt Q99755); cell-free assay).
For Serine/threonine-protein kinase 4 (STK4, Homo sapiens, UniProt Q13043); cell-free assay: remaining binding read 100%.
It gave 100% for remaining binding (Bone morphogenetic protein receptor type-1A (BMPR1A, Homo sapiens, UniProt P36894); binding).
The remaining binding was 100% (Mitogen-activated protein kinase kinase kinase kinase 5 (MAP4K5, Homo sapiens, UniProt Q9Y4K4); cell-free assay).
The remaining binding was 89% (Dual specificity tyrosine-phosphorylation-regulated kinase 2 (DYRK2, Homo sapiens, UniProt Q92630); cell-free assay).
The remaining binding was 100% (Death-associated protein kinase 1 (DAPK1, Homo sapiens, UniProt P53355); cell-free assay).
For Phosphatidylinositol 3-kinase C2 domain-containing subunit gamma (PIK3C2G, Homo sapiens, UniProt O75747); cell-free assay: remaining binding read 61%.
For Membrane-associated tyrosine- and threonine-specific cdc2-inhibitory kinase (PKMYT1, Homo sapiens, UniProt Q99640); cell-free assay: remaining binding read 100%.

Set 2
Target: HLA class I histocompatibility antigen, C alpha chain, allele C*04:01 (Homo sapiens, UniProt P10321)
Read-out: peptide-MHC binding
Molecule type: peptide
Concentration: concentration not given
Under binding, `RTLNLFRYK` is recorded as “inactive”.
`RYSNFAWYF` — result for binding: “inactive”.
`RWFVRNPFF` — result for binding: “inactive”.
`FLNPVIYTF`: binding “inactive”.
For `MALATGLWW`, binding read “inactive”.
Under binding, `STFDLYVYR` is recorded as “inactive”.
Under binding, `YMKERFTVL` is recorded as “inactive”.
`NRDVSFQDL`: binding “inactive”.

Mixed results
Read-out: enzyme activity
Mode: inhibitor
CAMK2A: Calcium/calmodulin-dependent protein kinase type II subunit alpha (CAMK2A, Homo sapiens, UniProt Q9UQM7)
POLQ ATPase domain: DNA polymerase theta, ATPase domain (POLQ, Homo sapiens, UniProt O75417)
UniProt O75417, sequence (whole entry, unmodified, looked up): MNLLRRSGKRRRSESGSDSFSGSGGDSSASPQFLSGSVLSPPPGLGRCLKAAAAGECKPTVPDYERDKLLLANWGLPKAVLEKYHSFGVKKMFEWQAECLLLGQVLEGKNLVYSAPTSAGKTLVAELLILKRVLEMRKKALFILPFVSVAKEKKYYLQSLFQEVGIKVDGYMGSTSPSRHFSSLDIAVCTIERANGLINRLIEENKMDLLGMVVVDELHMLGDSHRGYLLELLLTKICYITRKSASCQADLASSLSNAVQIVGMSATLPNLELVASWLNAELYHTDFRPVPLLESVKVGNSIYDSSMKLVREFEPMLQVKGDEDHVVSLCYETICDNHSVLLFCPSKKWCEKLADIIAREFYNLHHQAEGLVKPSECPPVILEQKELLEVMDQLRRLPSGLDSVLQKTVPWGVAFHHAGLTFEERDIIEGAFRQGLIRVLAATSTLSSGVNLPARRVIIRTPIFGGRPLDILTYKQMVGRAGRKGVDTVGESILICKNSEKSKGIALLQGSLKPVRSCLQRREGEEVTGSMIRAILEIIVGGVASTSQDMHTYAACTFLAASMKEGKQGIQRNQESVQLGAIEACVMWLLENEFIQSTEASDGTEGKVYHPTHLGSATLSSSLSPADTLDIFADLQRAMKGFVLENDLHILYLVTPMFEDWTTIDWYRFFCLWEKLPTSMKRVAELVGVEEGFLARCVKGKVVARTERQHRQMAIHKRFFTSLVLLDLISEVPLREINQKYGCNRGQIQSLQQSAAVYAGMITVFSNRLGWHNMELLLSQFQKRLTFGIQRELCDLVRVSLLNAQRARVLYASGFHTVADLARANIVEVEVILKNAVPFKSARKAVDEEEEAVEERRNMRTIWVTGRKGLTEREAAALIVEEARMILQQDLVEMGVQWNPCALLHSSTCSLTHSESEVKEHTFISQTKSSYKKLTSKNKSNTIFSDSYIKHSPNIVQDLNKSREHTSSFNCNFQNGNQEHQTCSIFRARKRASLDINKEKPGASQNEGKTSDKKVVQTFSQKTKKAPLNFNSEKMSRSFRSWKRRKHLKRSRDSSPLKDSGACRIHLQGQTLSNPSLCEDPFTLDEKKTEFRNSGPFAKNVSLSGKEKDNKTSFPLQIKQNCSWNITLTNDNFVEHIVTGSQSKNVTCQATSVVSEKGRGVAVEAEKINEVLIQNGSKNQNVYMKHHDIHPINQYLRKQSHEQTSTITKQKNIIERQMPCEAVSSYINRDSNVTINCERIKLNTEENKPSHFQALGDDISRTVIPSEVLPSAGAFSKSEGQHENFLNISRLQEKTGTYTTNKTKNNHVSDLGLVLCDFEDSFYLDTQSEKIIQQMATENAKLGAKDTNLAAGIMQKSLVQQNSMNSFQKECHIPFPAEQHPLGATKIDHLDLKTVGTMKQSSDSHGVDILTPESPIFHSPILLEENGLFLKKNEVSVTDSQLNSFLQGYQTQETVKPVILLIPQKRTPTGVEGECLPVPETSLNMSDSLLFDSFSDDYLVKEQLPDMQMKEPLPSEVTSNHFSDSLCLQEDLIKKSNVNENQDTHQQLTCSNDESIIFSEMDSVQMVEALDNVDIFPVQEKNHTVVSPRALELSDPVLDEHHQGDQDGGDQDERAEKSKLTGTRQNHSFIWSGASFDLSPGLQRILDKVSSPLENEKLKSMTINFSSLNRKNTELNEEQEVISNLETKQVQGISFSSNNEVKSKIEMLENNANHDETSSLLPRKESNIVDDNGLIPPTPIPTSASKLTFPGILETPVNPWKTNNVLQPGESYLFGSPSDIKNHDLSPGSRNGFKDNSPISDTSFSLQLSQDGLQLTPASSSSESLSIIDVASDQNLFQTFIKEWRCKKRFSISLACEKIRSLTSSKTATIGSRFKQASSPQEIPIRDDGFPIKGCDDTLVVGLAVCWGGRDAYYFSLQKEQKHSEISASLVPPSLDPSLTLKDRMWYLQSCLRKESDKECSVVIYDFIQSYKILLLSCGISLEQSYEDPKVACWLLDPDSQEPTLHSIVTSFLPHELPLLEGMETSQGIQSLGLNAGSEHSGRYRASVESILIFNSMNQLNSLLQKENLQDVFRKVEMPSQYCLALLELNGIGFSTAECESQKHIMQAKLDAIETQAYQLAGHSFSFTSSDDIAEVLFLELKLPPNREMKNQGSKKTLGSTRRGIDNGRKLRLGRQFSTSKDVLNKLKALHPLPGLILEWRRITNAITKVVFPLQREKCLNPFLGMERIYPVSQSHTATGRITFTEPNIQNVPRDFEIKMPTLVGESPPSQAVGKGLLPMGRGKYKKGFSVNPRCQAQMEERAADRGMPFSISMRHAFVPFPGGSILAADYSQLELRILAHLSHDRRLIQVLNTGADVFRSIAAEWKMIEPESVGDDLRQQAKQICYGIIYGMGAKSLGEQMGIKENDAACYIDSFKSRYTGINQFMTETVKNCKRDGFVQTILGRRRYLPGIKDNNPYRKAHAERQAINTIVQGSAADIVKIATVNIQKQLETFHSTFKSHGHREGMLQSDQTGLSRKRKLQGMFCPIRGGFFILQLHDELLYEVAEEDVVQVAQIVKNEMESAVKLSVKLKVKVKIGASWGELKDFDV
`CO[C@H]1C[C@H](O[C@H]2CC[C@@]3(C)[C@H](CC[C@@H]4[C@@H]3CC[C@]3(C)[C@@H](C5=CC(=O)OC5)[C@@H](OC(C)=O)C[C@]43O)C2)O[C@@H](C)[C@@H]1O` has an inhibition of -5% (CAMK2A; 10 µM).
For `COc1ccc2c(c1)[C@]13CCCC[C@@H]1[C@H](C2)N(C)CC3`, the remaining activity was 102% (POLQ ATPase domain; 77 µM; relative to: untreated).
`CC[C@H]1CN2CCc3cc(OC)c(OC)cc3[C@@H]2C[C@@H]1C[C@H]1NCCc2cc(O)c(OC)cc21` gave an inhibition of -17% (CAMK2A; 10 µM).
The remaining activity of `C[C@]12C[C@H]3S[C@H]3C[C@@H]1CC[C@@H]1[C@@H]2CC[C@]2(C)[C@@H](O)CC[C@@H]12` is reported as 98.5% (POLQ ATPase domain; 77 µM; relative to: untreated).

Excerpt of the above (set 2):
Under binding, `RTLNLFRYK` is recorded as “inactive”.
